{"data": "Assay results pooled from the literature", "note": "Parts stem from different laboratories: compare values within a part only. Substitutions count along the parent as printed."}
{"data": "Sample 1", "target": "Hepatocyte nuclear factor 3-alpha (Foxa1, Mus musculus, UniProt P35582, residues 1-468, full length assumed)", "method": "EMSA with sequencing", "molecule type": "double-stranded DNA, one strand shown", "medium": "in vitro", "concentration": "10 and 20 nM", "notes": "whole designed probe, mean of two concentrations, ends assumed", "baseline": "negative control set to 0", "direction": "higher = stronger binding", "shared flanks, not repeated": "GTGAGCGGTGCCCATTGATGGGGAAC … TTTCACTGGGATCGTGGGGAC", "chain of UniProt P35582 (whole entry, looked up)": "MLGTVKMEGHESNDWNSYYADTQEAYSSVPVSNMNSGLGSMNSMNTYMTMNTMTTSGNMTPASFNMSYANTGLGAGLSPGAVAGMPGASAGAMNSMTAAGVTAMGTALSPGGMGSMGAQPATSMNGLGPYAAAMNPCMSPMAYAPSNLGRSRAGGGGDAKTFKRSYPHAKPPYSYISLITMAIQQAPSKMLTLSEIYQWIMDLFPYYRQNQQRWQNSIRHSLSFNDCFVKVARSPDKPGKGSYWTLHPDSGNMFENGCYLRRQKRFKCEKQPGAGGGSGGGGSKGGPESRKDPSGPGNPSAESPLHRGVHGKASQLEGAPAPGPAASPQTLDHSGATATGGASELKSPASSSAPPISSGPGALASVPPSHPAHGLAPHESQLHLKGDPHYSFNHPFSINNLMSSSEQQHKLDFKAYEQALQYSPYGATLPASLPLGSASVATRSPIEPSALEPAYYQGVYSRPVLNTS"}
{"Sequence": "TTGACTTAAGGCTTCCTCCCAGCCCCCTCTCAGCCTCTAGCAACATACAGATGGCGTCATTCAGCACCTTGAATCATTTGGACAGCAGCAAAAGCAAACAAGAAACTCACCAACAGTGAAGCTAAATTAGCTGTCAGGGCTGCAATTGTACAGAATGTGTGGAAGCCAAGAAATAGCACCAGGGCTAAGAAGC", "normalised bound fraction [ratio]": 0.365}
{"Sequence": "TAAGACACCTTAGATAGGTTTTTTAGAGTTTAGTTTTGAAATATTTTGATAGCTAAACTTTCTTTTTCCAAATGAAATCATAGATGGGCACAATGTAATCTAAAATAATACAGCTCAGTATTAAGCAGAAAGTCCTTCATTGCTTGTGAAACCTGGAAATCAATTATTTCACACCCTTATGATTCTTAGAGAC", "normalised bound fraction [ratio]": -0.0523}
{"Sequence": "CCCTCATCCTGGGTGTCGGGGTGGGAGGTGTTCTCATCATGAATGGGAGGCGTACCCAGATCCAGCTCTGCCTTTTTTTAACCAAACCAGAGTGTAAACAAATGGCTGTGTGACTCACCATAATCGACATAGCAAGATATGATACATGCCAGGAGAGAAAAAGAAAGTGCTGATGGAAAAATAATCTCATTAG", "normalised bound fraction [ratio]": 0.354}
{"Sequence": "ATCTTCCCCCTCTTCCTTGCCCCACCAGCTCACCTACGGGGGTTATTTGCACAAAGGAAAATAAATAAAGCCGGCATTCGTTAACGCAGTTCTGGCGCAAACTGCTGTTTGCTCTGCATCTAACATGGTCCTTACGCGAGGCGTGGCTCCGGGAGAGCAAAGCACCGTGTCAGGCGCATGATCCGGGGTGGCC", "normalised bound fraction [ratio]": 0.392}
{"Sequence": "TCATGAGATTGTATTTACTTTTGTTAAGTGTAAACACTTCACAAAAGTGTTGTGTTTACTTTTGTTAAGTGTAAACACTTCACAAAAGTGTTGTGTTTACTTTTGTTAAGTGTAAACACTTCACAAAAGTGTTGTGTTTACTTTTAAGTGTAAACACTTCTTTTGTAATACTCTTTTGTAGTATTTTTCAACT", "normalised bound fraction [ratio]": 0.563}
{"Sequence": "GACTTTTACACAGGCATCATGGGAGTAAGCCCAAGATATTTTCTCACACTTGATTCCAGGCATCTCGGGTTTGGTTTCTTGATCAAATATCTGTGTTTGCTCTGTTTACAAGTATCTGATGAGCAAAACCAACAGAGGTGCTCCAGACAGGCTGGCTGTGCTGATCCCTTGGAAAAGAATTAAACAAAACCCA", "normalised bound fraction [ratio]": 0.243}
{"Sequence": "GAAATGAGTCAGCTTAATCAACTGAAATTCGCATTTGCATAGTTCTCGAGGCTAGAAGTTCCAGACCAGGACACAGTGAGGAGGCAGCAGTCTGCAATCTAGGAAGAGAGCCCTCACCAGGAAATCAGTCAGCTGTTCTCATTTAATGTTCTCACTTTAGAAGATCATGCAAGGGACAAAATCTCCAGAATCT", "normalised bound fraction [ratio]": -0.05}
{"Sequence": "ATGATCCAATTAAAAACAAAACAACAGCAACAACAAAAAAACAGACCTGGAAAACTTACTACACAGGCTCTGTGTAGTACGACAGAAAAGAAAAGTAAACAAGAATTTTTTAAAGGCATATAGGACTAGATATATGTAATTTGTTTTCTGAAATCCAACTCTTTCTTGTCCCTTTAGAAACATCTTCTCTATC", "normalised bound fraction [ratio]": 0.484}
{"data": "Sample 2", "target": "RNA binding protein fox-1 homolog 2, RRM domain, GST-SBP tag (RBFOX2, Homo sapiens, UniProt O43251-10, residues 100-194)", "method": "RNA Bind-n-Seq", "molecule type": "RNA", "medium": "in vitro", "concentration": "365 nM", "notes": "natural RNA segment, single round, ends assumed", "baseline": "no-protein control", "direction": "higher = stronger binding", "shared flanks, not repeated": "GGGAGUUCUACAGUCCGACGAUC … UGGAAUUCUCGGGUGCCAA", "Residues (chain)": "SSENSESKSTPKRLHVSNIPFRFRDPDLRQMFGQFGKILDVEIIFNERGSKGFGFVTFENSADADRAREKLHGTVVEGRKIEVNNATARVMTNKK"}
{"Sequence": "ACGGUGACGCCUGCGGGACCAUCUGGGGCACCUGCUUCCACCCGUCUCUCUGCCCACUCGGGUCUGCAGACCUGGUUCCCACUGAGGCCCUUUGCAGGAUGGAACUACGG", "RBNS enrichment (R)": 0.417}
{"Sequence": "CAGGCAGACAGCCUCAGCAACGCCCCUGGUGGACAGGAUGGUUCGGCAAAGCAGCCUGAGUUAUUUUUGUGGACGGAAUCGGAACACGCUGGCUCCAUAUCGUGAAAUUU", "RBNS enrichment (R)": 0.395}
{"Sequence": "AUGGACCCAUCGAGAAUGUUGAAAAGCUUGGAAGUAUCACUUUUGAAAAAAAAAAAAAUUAUUUUGCAUUCAGCAUGGACUCGACCAGGCAUCUAUGGAGAUUAUUUUUU", "RBNS enrichment (R)": 0.937}
{"Sequence": "GGGGGAUUCUGAGCAGUGCCUCUUGUCUGAGGGACAUAUCAGUGACCUCGACGUUGCCUUUAGACUACAGUUGUGUUAGCCUCUUGCGUAUUGGCUUUUUCAGAGUCAUU", "RBNS enrichment (R)": 0.358}
{"Sequence": "AUAGAAGAUGCUGAGUGUGUUUGAGAGACUGACAUACAUAAUAGAUGACUUCCUAGGGUUCUGAAAUUCAUAGACUAAGAGAAAACUGUGUAUAGCUUGCCCGAACAGGA", "RBNS enrichment (R)": 1.82}
{"Sequence": "GUACAUUUUAAAGGAUAAUGGUGAACAUUUUAAUGGGUUUCCCUUGCCCUUUCCAUAUUUAACCUAUUUCCACAUUCUCUCUCACUCACAUUUUCUCAGUGUGCCCUUCU", "RBNS enrichment (R)": 0.753}
{"Sequence": "UGCCCGCUGUCGGCUGGUUAUAGCACUUCCACUGCUACUGUCAGAUAGGAAGUGAUCGAAGCAGGGGGCAAAGAGAAAGCCCAUAUUUGUUCUAAGCAGAAAAGCAGGAA", "RBNS enrichment (R)": 1.82}
{"Sequence": "CUCUUUGGUCCUACCCGCUUCCCAUCACCGGAGGAGCUUCCCCGGCCGGGAGACCAGUGUUAGAGGAUCCAAGCGACCUAAACAGCUGCUUUAUGAAAUAUCCUUACUUU", "RBNS enrichment (R)": 0.461}
{"data": "Sample 3", "target": "Interferon regulatory factor 5, full length, phosphomimetic (IRF5, Homo sapiens, UniProt Q13568-2, residues 1-514, K96S/S451D/S453D/S456D/S462D)", "method": "protein-binding microarray", "molecule type": "double-stranded DNA, one strand shown", "medium": "in vitro", "concentration": "250 nM", "notes": "60-bp whole probe", "added": "salmon DNA 0.4 mg/ml", "baseline": "random background probes", "direction": "higher = stronger binding", "shared flanks, not repeated": "GCCTAGCAC … GTCTTGATTCGCTTGACGCTGCTG"}
{"Sequence": "GCCTTTATATACCTGAATATGTGCTAG", "log fluorescence": "0.264 z-score"}
{"Sequence": "GACGGACTGGGACTGGGGAGGTGCTAG", "log fluorescence": "-0.641 z-score"}
{"Sequence": "TGTTATTAAATTTTCACGGTGTGCTAG", "log fluorescence": "0.75 z-score"}
{"Sequence": "GCTAGTATGTTCCTTATTTAAGTGCTA", "log fluorescence": "0.325 z-score"}
{"Sequence": "TTAGGTTTCGACTCTGGGTTAGTGCTA", "log fluorescence": "6.37 z-score"}
{"Sequence": "TCATGTTTGATCTTGATACTGTGCTAG", "log fluorescence": "0.167 z-score"}
{"Sequence": "GACGATTTCGGGACTGGCGACGTGCTA", "log fluorescence": "1.37 z-score"}
{"Sequence": "TTAGGCCTGGACACTGGGTTAGTGCTA", "log fluorescence": "-0.566 z-score"}
{"data": "Mixed results", "parent": "viral docking peptide; KKVKRRLFETREL"}
{"Variant": "F8A", "target": "CCNE1, cyclin fold, Cln2 fusion (human)", "assay": "yeast growth competition, sequencing", "test system": "yeast", "conditions": "strong parent motif", "how to read": "baseline: not given, higher = stronger binding", "quantity": "normalised enrichment score", "value": 0.196}
{"note": "Repeated from above (sample 1):"}
{"Sequence": "TAAGACACCTTAGATAGGTTTTTTAGAGTTTAGTTTTGAAATATTTTGATAGCTAAACTTTCTTTTTCCAAATGAAATCATAGATGGGCACAATGTAATCTAAAATAATACAGCTCAGTATTAAGCAGAAAGTCCTTCATTGCTTGTGAAACCTGGAAATCAATTATTTCACACCCTTATGATTCTTAGAGAC", "normalised bound fraction [ratio]": -0.0523}
{"Sequence": "CCCTCATCCTGGGTGTCGGGGTGGGAGGTGTTCTCATCATGAATGGGAGGCGTACCCAGATCCAGCTCTGCCTTTTTTTAACCAAACCAGAGTGTAAACAAATGGCTGTGTGACTCACCATAATCGACATAGCAAGATATGATACATGCCAGGAGAGAAAAAGAAAGTGCTGATGGAAAAATAATCTCATTAG", "normalised bound fraction [ratio]": 0.354}
{"Sequence": "ATCTTCCCCCTCTTCCTTGCCCCACCAGCTCACCTACGGGGGTTATTTGCACAAAGGAAAATAAATAAAGCCGGCATTCGTTAACGCAGTTCTGGCGCAAACTGCTGTTTGCTCTGCATCTAACATGGTCCTTACGCGAGGCGTGGCTCCGGGAGAGCAAAGCACCGTGTCAGGCGCATGATCCGGGGTGGCC", "normalised bound fraction [ratio]": 0.392}
{"Sequence": "TCATGAGATTGTATTTACTTTTGTTAAGTGTAAACACTTCACAAAAGTGTTGTGTTTACTTTTGTTAAGTGTAAACACTTCACAAAAGTGTTGTGTTTACTTTTGTTAAGTGTAAACACTTCACAAAAGTGTTGTGTTTACTTTTAAGTGTAAACACTTCTTTTGTAATACTCTTTTGTAGTATTTTTCAACT", "normalised bound fraction [ratio]": 0.563}
